Measurements of several laboratories.
Every numbered part comes from another study and shows a few of its results, in no order. Values joined by “and” are separate records of one study, mostly repeats; a detail may differ.
Chain of UniProt P10721 (whole entry, unmodified, looked up): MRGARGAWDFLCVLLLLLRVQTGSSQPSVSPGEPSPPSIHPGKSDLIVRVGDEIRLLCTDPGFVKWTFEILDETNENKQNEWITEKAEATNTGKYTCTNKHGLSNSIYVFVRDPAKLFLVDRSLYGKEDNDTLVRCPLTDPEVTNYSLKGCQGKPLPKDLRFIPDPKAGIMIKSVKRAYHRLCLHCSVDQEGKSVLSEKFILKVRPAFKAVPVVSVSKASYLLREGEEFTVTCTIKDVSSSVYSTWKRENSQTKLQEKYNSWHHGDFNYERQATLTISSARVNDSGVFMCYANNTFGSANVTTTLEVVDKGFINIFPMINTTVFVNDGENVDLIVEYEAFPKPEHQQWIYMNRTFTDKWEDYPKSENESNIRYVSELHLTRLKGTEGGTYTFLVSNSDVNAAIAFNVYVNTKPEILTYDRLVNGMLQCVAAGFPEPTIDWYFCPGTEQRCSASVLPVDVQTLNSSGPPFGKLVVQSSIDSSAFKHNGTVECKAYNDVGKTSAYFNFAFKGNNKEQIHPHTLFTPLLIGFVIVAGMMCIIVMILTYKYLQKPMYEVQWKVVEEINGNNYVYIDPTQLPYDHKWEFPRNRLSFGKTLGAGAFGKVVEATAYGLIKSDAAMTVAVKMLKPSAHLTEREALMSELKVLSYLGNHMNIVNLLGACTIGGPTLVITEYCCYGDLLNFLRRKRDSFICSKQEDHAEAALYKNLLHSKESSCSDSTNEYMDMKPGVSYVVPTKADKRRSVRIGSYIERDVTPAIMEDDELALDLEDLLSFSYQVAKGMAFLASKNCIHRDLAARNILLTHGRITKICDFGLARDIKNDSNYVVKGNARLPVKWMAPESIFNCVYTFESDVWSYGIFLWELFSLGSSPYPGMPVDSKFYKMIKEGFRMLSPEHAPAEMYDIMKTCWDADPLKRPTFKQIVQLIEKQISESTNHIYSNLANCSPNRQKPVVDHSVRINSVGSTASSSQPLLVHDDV
Chain of UniProt Q13188 (whole entry, looked up): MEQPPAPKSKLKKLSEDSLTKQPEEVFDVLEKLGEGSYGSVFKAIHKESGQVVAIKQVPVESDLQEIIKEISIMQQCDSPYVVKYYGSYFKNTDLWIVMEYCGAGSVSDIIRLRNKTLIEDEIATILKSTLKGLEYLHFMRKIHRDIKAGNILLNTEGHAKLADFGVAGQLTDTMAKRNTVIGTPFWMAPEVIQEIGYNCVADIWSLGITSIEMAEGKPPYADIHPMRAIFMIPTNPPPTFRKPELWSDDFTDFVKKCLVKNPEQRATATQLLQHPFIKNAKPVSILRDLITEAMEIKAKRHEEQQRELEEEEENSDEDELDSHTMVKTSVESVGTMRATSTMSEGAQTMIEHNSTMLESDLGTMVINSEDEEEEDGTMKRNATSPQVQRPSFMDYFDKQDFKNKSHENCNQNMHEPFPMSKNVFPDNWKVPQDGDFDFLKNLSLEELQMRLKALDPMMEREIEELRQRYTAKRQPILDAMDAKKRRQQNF
Chain of UniProt Q9BVS4 (whole entry, looked up): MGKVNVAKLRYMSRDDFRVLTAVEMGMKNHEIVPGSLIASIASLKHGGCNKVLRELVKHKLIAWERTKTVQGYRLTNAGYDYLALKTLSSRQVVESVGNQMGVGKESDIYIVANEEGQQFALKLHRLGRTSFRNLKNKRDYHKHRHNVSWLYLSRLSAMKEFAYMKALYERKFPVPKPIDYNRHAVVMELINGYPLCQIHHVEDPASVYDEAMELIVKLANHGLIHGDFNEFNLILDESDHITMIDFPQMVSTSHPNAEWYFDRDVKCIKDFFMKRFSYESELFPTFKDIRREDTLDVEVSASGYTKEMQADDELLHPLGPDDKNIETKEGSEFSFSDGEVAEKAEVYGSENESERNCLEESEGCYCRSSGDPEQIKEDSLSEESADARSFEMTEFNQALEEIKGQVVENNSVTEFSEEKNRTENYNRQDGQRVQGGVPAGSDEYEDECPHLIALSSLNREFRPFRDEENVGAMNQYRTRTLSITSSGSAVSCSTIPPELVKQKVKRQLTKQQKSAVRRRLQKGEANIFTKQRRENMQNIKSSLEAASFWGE

Series 1
Compound: NC/C(=C\F)COc1cccc(Cn2c(=S)[nH]c(=O)c3[nH]ccc32)c1
Observed: enzyme activity
Mode: inhibitor
Technique: fluorescence
MPO: Myeloperoxidase (MPO, Homo sapiens, UniProt P05164)
Chain of UniProt P05164 (whole entry, looked up): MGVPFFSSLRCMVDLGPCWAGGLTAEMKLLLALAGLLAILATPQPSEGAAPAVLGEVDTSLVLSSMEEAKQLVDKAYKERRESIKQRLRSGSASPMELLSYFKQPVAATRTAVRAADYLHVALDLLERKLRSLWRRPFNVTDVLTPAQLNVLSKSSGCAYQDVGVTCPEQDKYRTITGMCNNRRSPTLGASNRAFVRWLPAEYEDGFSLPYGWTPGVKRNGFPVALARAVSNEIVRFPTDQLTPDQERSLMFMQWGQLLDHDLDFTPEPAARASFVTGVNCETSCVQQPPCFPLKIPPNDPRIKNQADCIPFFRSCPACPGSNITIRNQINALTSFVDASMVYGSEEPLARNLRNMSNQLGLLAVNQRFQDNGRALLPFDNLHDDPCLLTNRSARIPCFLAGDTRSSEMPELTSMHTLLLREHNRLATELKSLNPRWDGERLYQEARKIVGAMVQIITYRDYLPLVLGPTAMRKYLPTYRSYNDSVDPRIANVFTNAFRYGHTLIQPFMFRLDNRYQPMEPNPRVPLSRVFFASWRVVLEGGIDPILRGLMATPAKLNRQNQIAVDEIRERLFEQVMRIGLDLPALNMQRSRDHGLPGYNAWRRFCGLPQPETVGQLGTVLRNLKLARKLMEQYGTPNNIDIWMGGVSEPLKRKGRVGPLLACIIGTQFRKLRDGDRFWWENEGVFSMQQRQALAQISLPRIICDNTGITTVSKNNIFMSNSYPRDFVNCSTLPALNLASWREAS
AOC3: Amine oxidase [copper-containing] 3 (AOC3, Homo sapiens, UniProt Q16853)
Chain of UniProt Q16853 (whole entry, looked up): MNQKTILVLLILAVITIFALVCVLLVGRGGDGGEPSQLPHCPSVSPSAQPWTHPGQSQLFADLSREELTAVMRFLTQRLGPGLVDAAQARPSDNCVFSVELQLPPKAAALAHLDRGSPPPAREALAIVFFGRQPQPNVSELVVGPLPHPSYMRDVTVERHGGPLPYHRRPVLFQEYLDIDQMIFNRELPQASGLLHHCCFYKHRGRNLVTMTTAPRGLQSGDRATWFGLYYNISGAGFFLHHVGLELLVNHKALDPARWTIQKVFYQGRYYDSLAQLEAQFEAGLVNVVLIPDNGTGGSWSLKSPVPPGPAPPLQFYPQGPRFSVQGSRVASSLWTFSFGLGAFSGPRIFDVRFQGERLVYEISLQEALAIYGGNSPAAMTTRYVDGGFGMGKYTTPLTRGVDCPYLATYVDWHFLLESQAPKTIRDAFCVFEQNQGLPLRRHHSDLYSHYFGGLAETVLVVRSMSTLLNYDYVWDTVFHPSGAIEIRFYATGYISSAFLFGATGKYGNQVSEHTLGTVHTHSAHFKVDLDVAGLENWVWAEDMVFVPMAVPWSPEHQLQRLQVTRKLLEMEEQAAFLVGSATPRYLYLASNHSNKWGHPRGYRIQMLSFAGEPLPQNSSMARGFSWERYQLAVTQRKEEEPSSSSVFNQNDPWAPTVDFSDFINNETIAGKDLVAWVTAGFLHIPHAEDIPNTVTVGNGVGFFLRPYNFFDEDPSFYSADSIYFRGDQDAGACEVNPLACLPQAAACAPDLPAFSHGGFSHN
| target | conditions | inhibition |
| --- | --- | --- |
| MPO | 1.111 µM | 98.8% and 99.2% and 99.1% |
| MPO | 0.5556 µM | 98.3% and 98% and 99.5% |
| MPO | 0.1852 µM | 96.2% and 98.9% and 97.2% |
| AOC3 | 1.111 µM | 99.6% and 99.3% and 99.8% and 99.4% and 99.9% and 97.9% |
| MPO | 200 pM | 6.42% |
| AOC3 | 0.1235 µM | 97.6% and 95.9% and 97.9% and 88% and 97.4% and 94.4% |
| MPO | 3.333 µM | 99.5% and 99.4% and 98.9% |

Series 2
SMILES: CNc1ncc2cc(-c3cc(OC)cc(OC)c3Cl)c(=O)n(CCc3ccc(NC(=O)C(C#N)=CC(C)(C)N4CCOCC4)cc3)c2n1
Observed: kinase activity
| target | conditions | inhibition |
| --- | --- | --- |
| RPS6KA5 (Homo sapiens, UniProt O75582) | 0.1 µM | 0% |
| IGF1R (Homo sapiens, UniProt P08069) | 0.1 µM | 3% |
| BTK (Homo sapiens, UniProt Q06187) | 0.1 µM | 6% |
| FGR (Homo sapiens, UniProt P09769) | 1 µM | 28% |
| PRKACB (Homo sapiens, UniProt P22694) | 1 µM | 2% |
| TTK (Homo sapiens, UniProt P33981) | 1 µM | -2% |
| YES1 (Homo sapiens, UniProt P07947) | 1 µM | 18% |
| MARK3 (Homo sapiens, UniProt P27448) | 0.1 µM | 12% |
| EPHB1 (Homo sapiens, UniProt P54762) | 0.1 µM | -1% |
| CLK2 (Homo sapiens, UniProt P49760) | 1 µM | -2% |
| CLK3 (Homo sapiens, UniProt P49761) | 0.1 µM | -3% |

Series 3
SMILES: O=C(Nc1ccccc1)Nc1cccc(Oc2ccc3nccn3n2)c1
Tested at: 1 µM
| target | assay | remaining binding [%] |
| --- | --- | --- |
| NEK6 (Homo sapiens, UniProt Q9HC98) | binding | 100 |
| STK38 (Homo sapiens, UniProt Q15208) | binding | 96 |
| Cyclin-dependent kinase 4, with cyclin D1 (CDK4, Homo sapiens, UniProt P11802) | binding | 76 |
| KIT (Homo sapiens, UniProt P10721, D816H) | binding | 100 |
| RIPK2 (Homo sapiens, UniProt O43353) | binding, competition with immobilised ligand | 100 |
| EIF2AK1 (Homo sapiens, UniProt Q9BQI3) | binding | 100 |
| EIF2AK2 (Homo sapiens, UniProt P19525) | binding | 100 |
| MAP4K1 (Homo sapiens, UniProt Q92918) | binding, competition with immobilised ligand | 67 |
| MAP3K12 (Homo sapiens, UniProt Q12852) | binding | 100 |
| CAMK4 (Homo sapiens, UniProt Q16566) | binding | 93 |
| MTOR (Homo sapiens, UniProt P42345) | binding | 79 |
| AXL (Homo sapiens, UniProt P30530) | cell-free binding | 93 |
| RIOK2 (Homo sapiens, UniProt Q9BVS4) | binding | 100 |
| NEK11 (Homo sapiens, UniProt Q8NG66) | binding, competition with immobilised ligand | 100 |
| MAP2K6 (Homo sapiens, UniProt P52564) | binding | 100 |
| FLT3 (Homo sapiens, UniProt P36888, D835Y) | binding | 100 |
| EGFR (Homo sapiens, UniProt P00533, L861Q) | binding | 69 |
| STK3 (Homo sapiens, UniProt Q13188) | binding | 100 |
| KIT (Homo sapiens, UniProt P10721, D816V) | binding | 82 |
| MERTK (Homo sapiens, UniProt Q12866) | binding, competition with immobilised ligand | 96 |
| PIKFYVE (Homo sapiens, UniProt Q9Y2I7) | binding | 100 |
| CDK7 (Homo sapiens, UniProt P50613) | binding, competition with immobilised ligand | 100 |

Series 4
SMILES: COc1cc(-c2nc3ccc(C(=O)NCCCN(C)C)cc3n2C2CCC2)cc(OC)c1OC
Technique: NanoBRET
Tested at: 1 µM
| target | target occupancy |
| --- | --- |
| CAMK2D (Homo sapiens, UniProt Q13557) | 2.05% |
| JAK3 (Homo sapiens, UniProt P52333) | 1.11% |
| STK3 (Homo sapiens, UniProt Q13188) | 1.68% |
| MAP3K3 (Homo sapiens, UniProt Q99759) | 1.2% |
| RET (Homo sapiens, UniProt P07949) | 2.21% |
| Cyclin-dependent kinase 10, with cyclin L2 (CDK10, Homo sapiens, UniProt Q15131) | -14.8% |
| PHKG2 (Homo sapiens, UniProt P15735) | -3.57% |
| CDKL1 (Homo sapiens, UniProt Q00532) | -2.46% |
| RIOK2 (Homo sapiens, UniProt Q9BVS4) | -3.74% |
| CDKL2 (Homo sapiens, UniProt Q92772) | 1.72% |

Series 5
SMILES: Cc1ccc(O)c(C)c1-c1cnc2[nH]c(-c3cnc(N4CCC5(CC4)CC(N4CCN(c6ccc(NC7CCC(=O)NC7=O)cc6F)CC4)CO5)nc3)cc2c1C#N (stereo not shown)
| target or system | assay | conditions | inhibition [%] |
| --- | --- | --- | --- |
| MDA-MB-157 | item: CDK1 phospho-Thr14 | 333.33 nM | 57.2 |
| HuCCT-1 | item: CDK1 phospho-Thr14 | 0.46 nM | 16.5 |
| HuCCT-1 | item: CDK1 phospho-Thr14 | 1000 nM | 95 |
| HuCCT-1 | item: CDK1 phospho-Thr14 | 37.04 nM | 54.3 |
| PKMYT1 (Homo sapiens, UniProt Q99640) | cell-free assay, inhibitor, TR-FRET | 460 pM | 8.42 |
| HCC1599 | item: CDK1 phospho-Thr14 | 111.11 nM | 40.6 |
| HCC1599 | item: CDK1 phospho-Thr14 | 1.37 nM | -8.2 |

Series 6
Structure (SMILES): CC[C@@]1(c2ccccc2)C2=C(CC(C)(C)CC2=O)Nc2n[nH]cc21
Tested at: 1 µM
| target | assay | how to read | remaining binding |
| --- | --- | --- | --- |
| KIT (Homo sapiens, UniProt P10721, V559D/V654A) | kinase binding, KINOMEscan | baseline: DMSO control | 93% |
| CAMKK1 (Homo sapiens, UniProt Q8N5S9) | kinase binding, KINOMEscan | baseline: DMSO control | 88% |
| EPHB6 (Homo sapiens, UniProt O15197) | binding, competition with immobilised ligand |  | 100% |
| Tyrosine-protein kinase ABL1, phosphorylated (ABL1, Homo sapiens, UniProt P00519, M351T) | kinase binding, KINOMEscan | baseline: DMSO control | 100% |
| MAPK12 (Homo sapiens, UniProt P53778) | kinase binding, KINOMEscan | baseline: DMSO control | 99% |
| TEK (Homo sapiens, UniProt Q02763) | binding, competition with immobilised ligand |  | 100% |
| DCLK1 (Homo sapiens, UniProt O15075) | binding, competition with immobilised ligand |  | 88% |
| SGK1 (Homo sapiens, UniProt O00141) | kinase binding, KINOMEscan | baseline: DMSO control | 95% |
| EPHA5 (Homo sapiens, UniProt P54756) | binding, competition with immobilised ligand |  | 100% |
| CHEK1 (Homo sapiens, UniProt O14757) | binding, competition with immobilised ligand |  | 91% |
| BLK (Homo sapiens, UniProt P51451) | binding, competition with immobilised ligand |  | 100% |
| CLK1 (Homo sapiens, UniProt P49759) | kinase binding, KINOMEscan | baseline: DMSO control | 100% |
| Tyrosine-protein kinase ABL1, non-phosphorylated (ABL1, Homo sapiens, UniProt P00519, F317I) | binding, competition with immobilised ligand |  | 98% |
| PRKG1 (Homo sapiens, UniProt Q13976) | binding, competition with immobilised ligand |  | 100% |
| IKBKE (Homo sapiens, UniProt Q14164) | binding, competition with immobilised ligand |  | 100% |
| MARK4 (Homo sapiens, UniProt Q96L34) | kinase binding, KINOMEscan | baseline: DMSO control | 100% |
| PIK3CA (Homo sapiens, UniProt P42336, M1043I) | kinase binding, KINOMEscan | baseline: DMSO control | 100% |
| NIM1K (Homo sapiens, UniProt Q8IY84) | kinase binding, KINOMEscan | baseline: DMSO control | 99% |
| LYN (Homo sapiens, UniProt P07948) | binding, competition with immobilised ligand |  | 100% |

Series 7
SMILES: C[C@@H]1CN(c2ccc(-c3cc(C(=O)NCCOCCOCCOCCOCCNC(=O)/C=C/c4[nH]cc(C(=O)N[C@@H](CC(N)=O)c5ccc(F)c(Cl)c5)c4-c4ccc(Cl)cc4F)ccc3F)cc2NC(=O)c2c[nH]c(=O)cc2C(F)(F)F)C[C@H](C)N1C
Observed: thermal unfolding
Technique: differential scanning fluorimetry
Tested at: 5.5 µM
Direction: higher = more unfolded
DCAF1: DDB1- and CUL4-associated factor 1 (DCAF1, Homo sapiens, UniProt Q9Y4B6)
Chain of UniProt Q9Y4B6 (whole entry, looked up): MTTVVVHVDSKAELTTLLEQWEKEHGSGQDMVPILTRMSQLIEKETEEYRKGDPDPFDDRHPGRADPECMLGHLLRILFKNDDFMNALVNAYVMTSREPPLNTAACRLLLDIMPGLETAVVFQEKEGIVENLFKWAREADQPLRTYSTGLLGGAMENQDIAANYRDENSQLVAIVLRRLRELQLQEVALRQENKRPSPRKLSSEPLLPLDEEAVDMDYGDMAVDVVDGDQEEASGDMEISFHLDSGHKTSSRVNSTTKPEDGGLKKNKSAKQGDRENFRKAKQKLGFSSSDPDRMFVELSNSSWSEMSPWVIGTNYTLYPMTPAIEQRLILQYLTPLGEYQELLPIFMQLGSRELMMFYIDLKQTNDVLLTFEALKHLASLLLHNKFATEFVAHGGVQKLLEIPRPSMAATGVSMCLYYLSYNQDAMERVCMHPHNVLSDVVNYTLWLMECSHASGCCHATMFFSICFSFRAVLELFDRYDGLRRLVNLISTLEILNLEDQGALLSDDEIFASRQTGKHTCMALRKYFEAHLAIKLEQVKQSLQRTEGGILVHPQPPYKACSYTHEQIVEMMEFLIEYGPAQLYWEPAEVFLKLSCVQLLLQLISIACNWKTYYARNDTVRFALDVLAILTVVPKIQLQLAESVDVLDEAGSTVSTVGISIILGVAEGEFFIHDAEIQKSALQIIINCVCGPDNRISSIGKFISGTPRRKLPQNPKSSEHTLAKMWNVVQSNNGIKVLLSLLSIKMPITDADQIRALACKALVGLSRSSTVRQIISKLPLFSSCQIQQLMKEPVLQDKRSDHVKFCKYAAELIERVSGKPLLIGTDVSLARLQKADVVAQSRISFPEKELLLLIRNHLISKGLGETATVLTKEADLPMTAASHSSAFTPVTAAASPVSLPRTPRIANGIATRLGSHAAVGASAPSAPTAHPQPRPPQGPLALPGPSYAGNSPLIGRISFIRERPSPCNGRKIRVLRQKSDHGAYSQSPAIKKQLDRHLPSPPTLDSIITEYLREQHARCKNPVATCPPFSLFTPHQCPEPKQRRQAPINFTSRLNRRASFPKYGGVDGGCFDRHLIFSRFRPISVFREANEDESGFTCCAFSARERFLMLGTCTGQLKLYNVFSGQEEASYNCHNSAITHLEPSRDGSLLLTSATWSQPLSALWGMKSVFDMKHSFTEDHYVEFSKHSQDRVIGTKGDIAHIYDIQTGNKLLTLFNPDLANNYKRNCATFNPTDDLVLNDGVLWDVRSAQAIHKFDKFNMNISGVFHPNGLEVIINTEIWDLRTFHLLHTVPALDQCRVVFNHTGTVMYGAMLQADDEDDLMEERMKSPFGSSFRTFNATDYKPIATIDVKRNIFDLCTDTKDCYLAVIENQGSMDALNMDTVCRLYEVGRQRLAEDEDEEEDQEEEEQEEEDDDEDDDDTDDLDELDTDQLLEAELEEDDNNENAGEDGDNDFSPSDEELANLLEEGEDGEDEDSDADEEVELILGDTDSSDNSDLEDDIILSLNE
WDR5: WD repeat-containing protein 5 (WDR5, Homo sapiens, UniProt P61964)
| target | conditions | SYPRO Orange fluorescence |
| --- | --- | --- |
| DCAF1 | 43.6 °C | 12500 a.u. |
| WDR5 | 61.21 °C | 15300 a.u. |
| WDR5 | 89.41 °C | 51800 a.u. |
| WDR5 | 59.01 °C | 16000 a.u. |
| WDR5 | 30.6 °C | 12800 a.u. |
| WDR5 | 83.61 °C | 49800 a.u. |
| DCAF1 | 73.81 °C | 51400 a.u. |
| WDR5 | 50.6 °C | 16600 a.u. |
| WDR5 | 93.41 °C | 47100 a.u. |
| DCAF1 | 89.41 °C | 35700 a.u. |
| WDR5 | 58.01 °C | 16300 a.u. |

Series 8
Structure (SMILES): O=C(O)C1(O)Oc2cc(Cl)ccc2N(Cc2ccccc2)C1=O (stereo not shown)
| organism | assay | system | conditions | how to read | inhibition |
| --- | --- | --- | --- | --- | --- |
| Arabidopsis thaliana | root length | Col-0, seedlings | 25 µg/mL |  | 17.2% |
| Arabidopsis thaliana | hypocotyl length | Col-0 | 100 µg/mL, 7 days, seed germination, dark |  | 41.3% |
| Arabidopsis thaliana | hypocotyl length | Col-0 | 12.5 µg/mL, 7 days, seed germination, dark |  | 3.6% |
| Arabidopsis thaliana | hypocotyl length | Col-0, seedlings | 12.5 µg/mL |  | 3.63% |
| Arabidopsis thaliana | hypocotyl length | Col-0, seedlings | 100 µg/mL |  | 41.3% |
| Arabidopsis thaliana | hypocotyl length | Col-0 | 25.0 µg/mL, 7 days, seed germination, dark |  | 21.1% |
| Arabidopsis thaliana | root length | Col-0, seedlings | 50 µg/mL | baseline: water control | 52.4% |
| Avena fatua | fresh weight |  | 150 g ai/ha, pre-emergence treatment |  | 83.6% and 80.7% and 80.2% |
| Arabidopsis thaliana | root length | Col-0, seedlings | 50 µg/mL |  | 52.4% |
| Arabidopsis thaliana | root length | Col-0, seedlings | 6.25 µg/mL | baseline: water control | 6.36% |
| Arabidopsis thaliana | root length | Col-0, seedlings | 25 µg/mL | baseline: water control | 17.2% |
| Amaranthus retroflexus | fresh weight |  | 150 g ai/ha, post-emergence treatment |  | 54.6% and 59.7% and 59.4% |
| Glycine max | fresh weight |  | soil surface spray, 150 g ai/ha, 21 days, pre-emergence crop safety |  | 8.9% and 8.2% and 9% |

Series 9
SMILES: CN1CCC[C@H]1COc1nc2c(c(N3CCN(C(=O)C(F)(F)F)[C@@H](CC#N)C3)n1)CCN(c1cccc3cccc(Cl)c13)C2
Observed: binding
Mode: competitor
Technique: NanoBRET
Cell line: HEK293
KRAS Q61L: GTPase KRas (KRAS, Homo sapiens, UniProt P01116, Q61L)
KRAS Q61R: GTPase KRas (KRAS, Homo sapiens, UniProt P01116, Q61R)
| target | conditions | normalized BRET |
| --- | --- | --- |
| KRAS Q61L | 1.69 nM | 92.8% and 102% and 92.7% |
| KRAS Q61L | 3.7 µM | 58.7% and 61.5% and 70.3% |
| KRAS Q61R | 11.1 µM | 78% and 87.7% and 98.4% |
| KRAS Q61L | 137 nM | 97.2% and 90.4% and 89.7% |
| KRAS Q61R | 1.69 nM | 107% and 87.7% and 95.4% |

Series 10
SMILES: CCN1/C(=C/C=C2\CCCC(/C=C/C3=[N+](CC)c4ccccc4C3(C)C)=C2NCCCCCCCCN2CCC(Nc3nc4ccccc4n3Cc3ccc(F)cc3)CC2)C(C)(C)c2ccccc21
Cell line: U-87 MG
Tested at: concentration not given
Baseline: DMSO
| assay | log2 fold change |
| --- | --- |
| item: CA13 mRNA | 1.32 |
| item: CLIP4 mRNA | 1.11 |
| item: THRA mRNA | -1.09 |
| item: SNX18 mRNA | -0.855 |
| item: CMKLR1 mRNA | -2.83 |
| item: PRKACB mRNA | 0.914 |
| item: ISY1-RAB43 mRNA | 0.948 |
| item: CDK1 mRNA | -1.88 |
| item: KHDRBS3 mRNA | 1.13 |
| item: U2AF1 mRNA | -2.93 |
| item: JUND mRNA | 1.08 |
| item: ARL5B mRNA | 1.36 |
| item: HS3ST3A1 mRNA | -1.86 |
| item: RALGAPA1 mRNA | 1.05 |
| item: TNS2 mRNA | -1.84 |
| item: DNAJB6 mRNA | 0.82 |
